Measured values of several laboratories.
Lines come from different studies, so protocols differ. ± marks the error that the study gave.
Cell line: HepG2

SMILES	effect on	method	sample	time	notes	IC50
O=C1C=CC(=O)c2c(O)cccc21	cell growth or viability	MTT	–	–	–	32.4 µM
Cc1ccc2c(Cl)cc(Cl)c([O-])c2n1.Cc1ccc2c(Cl)cc(Cl)c([O-])c2n1.[Co+2].c1cnc2c(c1)c1nccnc1c1cccnc12	cell growth or viability	MTT	–	48 h	–	3.69 µM
Cc1cc(Oc2nc(N3CC[C@@H](c4ccncc4)C3)ncc2F)[nH]n1	cell proliferation	–	liver cancer	–	–	42.7 µM
O[C@]12C=C(c3nccc4c3[nH]c3ccccc34)[C@@H]3CCN(CCCC/C=C\CC1)C[C@@]31C[C@@H]3/C=C\CCCCN3[C@H]12	cell growth or viability	neutral red	–	48 h	–	4.4 µg/mL
O=C1C=CC(=O)c2c(O)ccc(O)c21	cell growth or viability	MTT	–	–	–	1.37 µM
CC1CCC2C(C)C(OC(=O)CCC(=O)OC3C(C)OC(n4cc(F)c(=O)[nH]c4=O)C3OC(=O)CCC(=O)OC3OC4OC5(C)CCC6C(C)CCC(C3C)C46OO5)OC3OC4(C)CCC1C32OO4 (centres unmarked)	cell growth or viability	CCK-8	–	–	–	> 50 µM
COc1ccc(CN2CCN(Cc3ccccc3)CC2)c(O)c1	cytotoxicity	MTT	–	–	–	> 50 µM
CC1CCC2C(C)C(CCCOC(=O)C(Cc3ccc(N(CCCl)CCCl)cc3)NC(=O)OC(C)(C)C)OC3OC4(C)CCC1C32OO4 (centres unmarked)	cell growth or viability	CCK-8	–	–	–	0.76 µM
Cc1ccc(C(C)C)cc1.Cc1ccc(C(C)C)cc1.Cc1ccc(C(C)C)cc1.Cc1ccc(C(C)C)cc1.O=S(=O)(O)C(F)(F)F.O=S(=O)(O)C(F)(F)F.O=S(=O)(O)C(F)(F)F.O=S(=O)(O)C(F)(F)F.c1ccc2c3c4ccccc4c(c2c1)-c1cn(nn1)-c1cc[n+](cc1)[Ru-]1[O]c2ccc4c5c(ccc(c25)=[O+]1)=[O+][Ru-]([O]4)[n+]1ccc(cc1)-n1cc(nn1)-c1c2ccccc2c(c2ccccc12)-c1cn(nn1)-c1cc[n+](cc1)[Ru-]1[O]c2ccc4c5c(ccc(c25)=[O+]1)=[O+][Ru-]([O]4)[n+]1ccc(cc1)-n1cc-3nn1	cell growth	MTT	–	24 h	after 24 h preincubation in medium at 37 °C	4.6 ± 0.34 µM
Nc1c(C(=O)N2CCCCC2)sc2nc(-c3ccccc3)cc(C(F)(F)F)c12	cell growth or viability	–	–	72 h	–	> 100 µM
C[C@H]1[C@H](OC(=O)CCC(=O)OCCC2CCN(CC(=O)Nc3ccc([N+](=O)[O-])c(C(F)(F)F)c3)CC2)O[C@@H]2O[C@@]3(C)CC[C@H]4[C@H](C)CC[C@@H]1[C@@]24OO3	cell growth or viability	CCK-8	–	–	–	> 50 µM

A few entries again:
SMILES	effect on	method	sample	time	notes	IC50
Cc1ccc2c(Cl)cc(Cl)c([O-])c2n1.Cc1ccc2c(Cl)cc(Cl)c([O-])c2n1.[Co+2].c1cnc2c(c1)c1nccnc1c1cccnc12	cell growth or viability	MTT	–	48 h	–	3.69 µM
